Measurements gathered from unrelated publications.
Numbered parts are unrelated; each lists some results of a single study.

Series 1 — technique: protein-binding microarray; form: double-stranded DNA, one strand shown; sample: in vitro; concentration: 0.8 µM; notes: whole 60-bp probe, no competitor; reading: higher = stronger binding; shared flanks, not repeated: … GTCTTGATTCGCTTGACGCTGCTG
Target: Centromere-binding protein 1, full length, N-terminal tag (CBF1, Saccharomyces cerevisiae, UniProt P17106, residues 1-351)
Sequence of UniProt P17106 (whole entry, looked up): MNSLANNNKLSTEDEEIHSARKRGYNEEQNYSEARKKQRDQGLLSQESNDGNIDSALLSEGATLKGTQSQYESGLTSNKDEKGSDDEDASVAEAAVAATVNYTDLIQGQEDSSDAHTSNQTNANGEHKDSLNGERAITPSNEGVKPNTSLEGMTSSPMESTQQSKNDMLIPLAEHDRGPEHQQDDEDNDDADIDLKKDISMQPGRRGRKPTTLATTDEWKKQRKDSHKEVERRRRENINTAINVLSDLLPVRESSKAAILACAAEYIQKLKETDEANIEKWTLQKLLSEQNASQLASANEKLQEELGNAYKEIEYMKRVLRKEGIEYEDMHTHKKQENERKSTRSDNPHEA
Oligonucleotide | fluorescence intensity
CTACGCCGTCGGAGTGACATCAAGTACCATAGATTC | 515 a.u.
GAAGAAGTTATATGTCATGTTGCTCATTCTGTTTAG | 546 a.u.
CTAACATACCCACAATATGTGACTATTGGCAAATTC | 530 a.u.
GAAATGATAAAAAATGGTGTGAAATTATATGACTAG | 525 a.u.
TGTACGAAGCTATAGATGGTGACTATAGTAGTTAGG | 545 a.u.
GAACCTATGCGCCTAAACGTCACCGTCTAACCTTAG | 530 a.u.
GAATTAAAAAGCTGCACGTGACTAACTAGAACCTAG | 22000 a.u.
GAACTAGTCACGGAGCACGAGAGGTAAAGAATTTAG | 981 a.u.
CCTAACTACTATAATCATGCTGCATAGCTTCGTACA | 536 a.u.
CTACGATAACGGTACCACGTTCCCATAAAATTCTTC | 729 a.u.
CTATTCTTTGCATGTCACCATTGGGATCGGTGATTC | 544 a.u.
GAAGCTGTGAAGAGTGGTGTGGATCCAAACGCGTAG | 486 a.u.
GAAGACAGAGTAGATGACATCACTGAGGTCCTTTAG | 523 a.u.
CTACACGAATAACATCACGAAATTTATCGACAGTTC | 567 a.u.
CTACACTTAATACACCACCTGGTGTCCATTGCCTTC | 585 a.u.
CTATTTTTTAACTGCACGTGCATCAAGGGGATCTTC | 12600 a.u.
CTAGTATCGCATTATCACCACGCCTATATAACATTC | 566 a.u.

Series 2 — technique: protein-binding microarray; form: double-stranded DNA, one strand shown; sample: in vitro; concentration: 940 nM top; notes: 60-bp whole probe; with: salmon DNA 0.4 mg/ml; reference: random background probes; reading: higher = stronger binding; shared flanks, not repeated: GCCTAGCAC … GTCTTGATTCGCTTGACGCTGCTG
Target: Interferon regulatory factor 5, full length, phosphomimetic (IRF5, Homo sapiens, UniProt Q13568-2, residues 1-514, S451D/S453D/S456D/S462D)
Oligonucleotide | fitted relative affinity [z-score]
TTAGGACTGGGTTTCAGTTAGTGCTAG | 1.83
GACGGTATCGGTATCGGGAGGTGCTAG | 8.24
TCACTTCCCAATAATCTTACTGTGCTA | 1.2
TCAGGTTTCGGTATCGGTTAGTGCTAG | 14.2
GACGATATCGGGTTTAGAGACGTGCTA | -0.315
TTAGAACTGAGCATCGATTAGTGCTAG | -0.337
GACGGACTGCTTATCCTCACGTGCTAG | -0.418
AAGTTTCTCCTTTGTAAATAGTGCTAG | 4.53
GGATTGCAACCCCTCAAAAAGTGCTAG | -0.176
TCAGCTTTCCTCGTGATACTGTGCTAG | 0.364
TTAGGACTACTTTTCCTTTAGTGCTAG | -0.151
GACGGTCTCCTAATCCTGACGTGCTAG | 0.378
ATTGTTTTCAGTTTCACTGCGTGCTAG | 4.24
TTTGGTATCGACTTTCGGTTAGTGCTA | 9.12
TTAGGTATCGGGTTTCGGGTAGTGCTA | 7.23
TCACCTCTCCCCTCTTGTACTGTGCTA | 0.448
AACGGTATCGGACTGGGGACGTGCTAG | 2.57
TCACCAATGCTTCTGGTACTGTGCTAG | -0.454
TTTGCTTTACTGATGGCCCTGTGCTAG | -0.232
AATTACATTTCATAGAGTGTGTGCTAG | 0.203
TCAGCTGTCCTTTGCAAACTGTGCTAG | -0.092

Series 3 — technique: RNA Bind-n-Seq; form: RNA; sample: in vitro; concentration: 365 nM; reference: no-protein control; reading: higher = stronger binding
Target: RNA binding protein fox-1 homolog 2, RRM domain, GST-SBP tag (RBFOX2, Homo sapiens, UniProt O43251-10, residues 100-194)
Notes: natural RNA segment, single round, ends assumed
Shared flanks, not repeated: GGGAGUUCUACAGUCCGACGAUC … UGGAAUUCUCGGGUGCCAA
Residues (chain): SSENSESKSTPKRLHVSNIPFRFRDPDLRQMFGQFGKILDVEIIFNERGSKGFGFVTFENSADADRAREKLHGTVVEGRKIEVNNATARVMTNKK
Oligonucleotide | RBNS enrichment (R)
UGUGUACACUAAUGCUGUACUAGAUUCCCACAGAACAUCUAGCAAACAAAACUGAUACAAUCUGCUGCCUAUUGUUUGAGGACCCACUGAGUAAUGUUUGUGGCUAUUAA | 0.492
CCAGGCAACUGGCUGUCUUUGGGAGGGGUGGCUCUUAAGACUCUACCUCUGAUUGCAUCACUAGGACUAACUACAAGCUGGCUGGGGAUACUCCCUUGUGUGUUCUGUCC | 2.43
ACGCCAAGGACACUCGCCACUAUUCACACGCUGUGCCGAGGGUGUGUGGAGGGACAACAGAGAGCAGUGUAUCUGAGUAAGAUGCACACAUCGAAGUGCGUUCAAAGUCU | 0.446
UAGGUGUCCUUAGGGAGAGAAAACAGGAGCAAGCUCAUGGUCUGGCCUAGUCUCCCUCUCCCACUCCUUCUGAUGACACUAGCAAUGCAUUCCAUCUGACCUGACUUUAU | 0.918
AUACUUAAAAGUAUCUCCUCCUUACUUGAAAGAAUGAUGUUCUACAUGCUAAUAUUUGUGAGACAUGAAAACUAUUUCAAAGCCAACUUUGUUGUCUUGUUGUAUAAGAA | 0.373
UCAGGAGUAAUACAAAUCAGGUAUUUCAUCAUCAUUUGGUAAUAUGAAAACUCCAGUGAACUCCCAAGGACAUUUACAACAUUUAUAUUCACACGCUGUAUGGAAGGGUG | 0.843
AGUGGUGGCCCUGGGGGGCCAUUCGAUUCGCCUCAGUUGCUGCUGUAAUAAAAGUCUACUUUUUGCUAAAAGCGUCGUGUGUUCGCGCCUUUCCCGCCAGGGGGAGCGGG | 0.346
CAGUGAGCUGAGAUUGUGCUGCUGCACUCCAGCCUGGGAGACAGAGCGAGACUCUGUCUUAAAAAAAAAAAAAGGAGGUGAAUUUUUUUUUAAGUUUUGUAACACUGUCC | 0.974
UAUUUUUUAAAAAGUUGAGUAUCUGAGUUAAAAUUUCCAAAUCUUUAUUUUACACCACCUUAAAAAUUAUAUGAGAACAAGGUACAUGCAUUAUGUGUCACAUUACUGGG | 1.03
UGAAUUCGGGCAAUGUGAAUUGAUUAAUUAGAAAAGGGUCAAAAGAAAUACAAUGGAUGUGGAAACUAAUUCUAAAAAAUAGCCCUAUUAAUAGGGCAGAGACUCUGGUC | 0.522
GUUUGUUUUUUCAAAAUGGAAGUAAUUUAGAUUUGUUCUCCUCAUACAUAAAAUGAUUUUAGUUCAGUUUUAACCAGUGAAAACUUUGUUUUUAUGAAAAAAAAGGAAAA | 1.06
AACAAACAGUACCAGUAUUUGAUCCAGUCUCAUCUCAGCUGUGUUAUACCUGGACAAUUUAGAUGUUUAUCAAAGGUCUUUUAUGGGGAAGAAAGCAAAUGUGUAAAACA | 0.857

Series 4 — technique: RNA Bind-n-Seq; form: RNA; sample: in vitro; concentration: 1 µM; notes: whole 134-nt RNA, ends assumed; with: 150 mM KCl; reference: input library; reading: higher = stronger binding
Target: Ras GTPase-activating protein-binding protein 1, RRM domain (G3BP1, Homo sapiens, UniProt Q13283)
Sequence of UniProt Q13283 (whole entry, looked up): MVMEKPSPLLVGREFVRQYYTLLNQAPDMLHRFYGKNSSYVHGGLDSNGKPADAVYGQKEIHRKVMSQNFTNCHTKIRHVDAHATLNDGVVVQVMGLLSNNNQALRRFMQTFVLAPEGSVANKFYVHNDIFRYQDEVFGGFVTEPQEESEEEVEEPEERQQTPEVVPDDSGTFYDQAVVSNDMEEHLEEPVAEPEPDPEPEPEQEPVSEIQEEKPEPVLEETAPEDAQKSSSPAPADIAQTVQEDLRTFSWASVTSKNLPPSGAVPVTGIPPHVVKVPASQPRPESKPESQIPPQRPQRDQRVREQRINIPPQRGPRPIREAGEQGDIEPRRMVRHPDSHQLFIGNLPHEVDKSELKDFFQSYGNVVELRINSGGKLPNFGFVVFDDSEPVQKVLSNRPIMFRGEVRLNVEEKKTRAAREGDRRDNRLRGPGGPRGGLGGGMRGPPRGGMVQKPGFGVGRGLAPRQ
Shared flanks, not repeated: GGGAGUUCUACAGUCCGACGAUC … UGGAAUUCUCGGGUGUCAAGG
Oligonucleotide | log2 enrichment
CAAGUCCUGUGCUACACAUCGUAUGUACCGAAUCGGUUUUUGGUUUUUUUGGAGGAAAGUAUUAUGUUACGCCGUUCGGAUCUGCACUUC | -0.262
UCAAGUCCUGUGCUACACAUCGUAUGUACCGAAUCGGGCCCGGCCCGGCCCGGGAAAGUAUUAUGUUACGCCGUUCGGAUCUGCACUUCC | -0.691
AGUCCUGUGCUACACAUCGUAUGUACCGAAUCGGGAAAAAGGGAAAAAGGGAAAAAGGAAAGUAUUAUGUUACGCCGUUCGGAUCUGCAC | -0.0765
UAACUUUAGAGGAGGAUCUGAUGGAUAUGGCAGUGGACGUGGAUUUGGGGAUGGCUAUAAUGGGUAUGGAGGAGGACCUCGAGGUGGCAA | -0.475
AGUCCUGUGCUACACAUCGUAUGUACCGAAUCGGGGUUUUUGGGUUUUUGGUUUUUGGAAAGUAUUAUGUUACGCCGUUCGGAUCUGCAC | -0.321
ACCAUGCAGGUGGGCAUCUUUGGGAAGUGGGGCAAGGGGGGGAUAGGGAGGCGGGUAACACUUUGGGAACAGGUGGUCCCAGGUCGUUUC | 0.615
CCUGUGCUACACAUCGUAUGUACCGAAUCGGGAAAAAAGGGGAAAAAAGGAAAAAAGGGGAAAGUAUUAUGUUACGCCGUUCGGAUCUGC | 0.0455
CUGUGCUACACAUCGUAUGUACCGAAUCGGGAAAAAAAGGGGAAAAAAAGGGAAAAAAAGGGAAAGUAUUAUGUUACGCCGUUCGGAUCU | 0.261
CACAGACAACACGCACCCACACAGACACAGAGGGAAGGGGUUGGGAUGGGAAAAGGGUGCACAGCAGGGCGGGGUAGGACCCCAGCCCCU | -0.277
AAGUCCUGUGCUACACAUCGUAUGUACCGAAUCAAAUUUAAACCCCCAAAUUUAAAAAAGUAUUAUGUUACGCCGUUCGGAUCUGCACUU | -0.0632
UCCUGUGCUACACAUCGUAUGUACCGAAUCGGGGAAAAAGGGAAAAAGGGGAAAAAGGGGAAAGUAUUAUGUUACGCCGUUCGGAUCUGC | 0.0892
UGGGAGGUGGAUUUUGUUUAUUGUUUUAGCUCAUUUCCAGGGGUGGGAAUUUUUUUUUAAUAUGUGUCAUGAAUAAAGUUGUUUUUGAAA | 1.53
AGUCCUGUGCUACACAUCGUAUGUACCGAAUCGGGGAAAAAGGGGUUUGGGGAGGGGAAAGUAUUAUGUUACGCCGUUCGGAUCUGCACU | 1.39
AAGUCCUGUGCUACACAUCGUAUGUACCGAAUCGGGAAAAGGGAAAAGGAAAAGGGAAAGUAUUAUGUUACGCCGUUCGGAUCUGCACUU | -0.0792

Repeated from above (series 1):
Oligonucleotide | fluorescence intensity
CTAACATACCCACAATATGTGACTATTGGCAAATTC | 530 a.u.
GAAATGATAAAAAATGGTGTGAAATTATATGACTAG | 525 a.u.
TGTACGAAGCTATAGATGGTGACTATAGTAGTTAGG | 545 a.u.
GAACCTATGCGCCTAAACGTCACCGTCTAACCTTAG | 530 a.u.
GAATTAAAAAGCTGCACGTGACTAACTAGAACCTAG | 22000 a.u.
GAACTAGTCACGGAGCACGAGAGGTAAAGAATTTAG | 981 a.u.
CCTAACTACTATAATCATGCTGCATAGCTTCGTACA | 536 a.u.
CTACGATAACGGTACCACGTTCCCATAAAATTCTTC | 729 a.u.
CTATTCTTTGCATGTCACCATTGGGATCGGTGATTC | 544 a.u.
GAAGCTGTGAAGAGTGGTGTGGATCCAAACGCGTAG | 486 a.u.
